# Assay results of several laboratories.
# A part holds a random share of what one study measured. Substitutions count along the parent as printed.
# UniProt O15294, sequence (whole entry, looked up): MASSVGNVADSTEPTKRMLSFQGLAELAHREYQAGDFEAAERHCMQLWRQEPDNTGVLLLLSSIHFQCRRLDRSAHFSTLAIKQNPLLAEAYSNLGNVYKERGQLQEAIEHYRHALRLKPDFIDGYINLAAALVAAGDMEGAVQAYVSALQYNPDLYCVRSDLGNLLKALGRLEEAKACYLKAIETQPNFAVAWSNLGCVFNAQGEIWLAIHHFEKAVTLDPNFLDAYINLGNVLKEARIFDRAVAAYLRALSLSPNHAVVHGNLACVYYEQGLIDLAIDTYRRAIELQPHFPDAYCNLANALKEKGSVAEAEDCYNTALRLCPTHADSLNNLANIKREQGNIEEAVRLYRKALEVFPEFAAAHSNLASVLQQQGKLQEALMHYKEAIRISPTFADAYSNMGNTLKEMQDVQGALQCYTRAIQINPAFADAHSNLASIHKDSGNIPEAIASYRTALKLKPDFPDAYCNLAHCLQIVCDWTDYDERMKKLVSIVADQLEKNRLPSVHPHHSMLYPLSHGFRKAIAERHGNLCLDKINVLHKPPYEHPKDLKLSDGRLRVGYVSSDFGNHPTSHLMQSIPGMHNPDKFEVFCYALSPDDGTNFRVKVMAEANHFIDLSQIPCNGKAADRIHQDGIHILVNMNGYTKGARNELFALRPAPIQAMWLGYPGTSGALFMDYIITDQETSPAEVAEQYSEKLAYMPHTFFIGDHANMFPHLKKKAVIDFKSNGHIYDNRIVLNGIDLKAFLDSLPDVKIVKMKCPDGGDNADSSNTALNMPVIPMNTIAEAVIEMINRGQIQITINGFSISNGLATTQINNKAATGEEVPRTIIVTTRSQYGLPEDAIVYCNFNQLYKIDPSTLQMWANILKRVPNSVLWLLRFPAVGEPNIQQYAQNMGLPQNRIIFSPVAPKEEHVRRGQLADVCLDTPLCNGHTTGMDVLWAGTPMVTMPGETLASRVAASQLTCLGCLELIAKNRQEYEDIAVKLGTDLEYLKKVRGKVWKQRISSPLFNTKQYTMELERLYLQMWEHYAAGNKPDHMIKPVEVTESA

# Sample 1
# Target: Sal-like protein 4, full length isoform A (SALL4, Homo sapiens, UniProt Q9UJQ4, residues 1-1053)
# UniProt Q9UJQ4, sequence (whole entry, looked up): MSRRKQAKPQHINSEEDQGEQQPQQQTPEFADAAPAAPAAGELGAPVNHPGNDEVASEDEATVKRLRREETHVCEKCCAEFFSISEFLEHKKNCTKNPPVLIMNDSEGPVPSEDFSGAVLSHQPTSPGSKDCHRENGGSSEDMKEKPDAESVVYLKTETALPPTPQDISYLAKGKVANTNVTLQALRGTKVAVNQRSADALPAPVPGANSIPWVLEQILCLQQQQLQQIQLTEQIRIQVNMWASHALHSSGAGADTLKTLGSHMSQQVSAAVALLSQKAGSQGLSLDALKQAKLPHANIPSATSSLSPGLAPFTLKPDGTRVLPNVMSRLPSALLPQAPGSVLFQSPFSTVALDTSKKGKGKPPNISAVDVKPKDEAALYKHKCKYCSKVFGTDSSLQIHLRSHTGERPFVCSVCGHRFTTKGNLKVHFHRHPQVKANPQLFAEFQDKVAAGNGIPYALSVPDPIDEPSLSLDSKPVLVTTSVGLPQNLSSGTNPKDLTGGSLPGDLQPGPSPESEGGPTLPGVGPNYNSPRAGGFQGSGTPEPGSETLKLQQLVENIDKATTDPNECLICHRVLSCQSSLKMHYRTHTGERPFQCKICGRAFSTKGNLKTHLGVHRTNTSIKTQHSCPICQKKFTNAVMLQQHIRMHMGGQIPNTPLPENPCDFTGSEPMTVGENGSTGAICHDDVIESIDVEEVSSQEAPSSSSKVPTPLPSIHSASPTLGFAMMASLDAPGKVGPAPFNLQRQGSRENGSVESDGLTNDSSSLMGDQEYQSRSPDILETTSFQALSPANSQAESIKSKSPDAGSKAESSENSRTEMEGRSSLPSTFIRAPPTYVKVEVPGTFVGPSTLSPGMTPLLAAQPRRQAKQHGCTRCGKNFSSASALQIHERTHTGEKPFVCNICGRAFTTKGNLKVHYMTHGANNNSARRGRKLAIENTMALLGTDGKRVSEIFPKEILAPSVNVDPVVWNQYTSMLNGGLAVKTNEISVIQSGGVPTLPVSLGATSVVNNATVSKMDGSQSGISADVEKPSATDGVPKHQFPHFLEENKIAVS
# Method: universal PBM
# Molecule type: double-stranded DNA, one strand shown
# Matrix: in vitro
# Tested at: 600 nM
# Notes: 8-mer, flanks averaged, mean of replicates
# Reading: higher = stronger binding
Sequence,E-score
TACTAGGA,0.0529
ACACGACT,0.0318
AGCAGCAA,-0.00352
AGTCGTAT,0.154
CCAACTCC,-0.0614
CCGAGGCC,-0.386
ATTTTATA,0.374
CTCATGTC,-0.0766

# Sample 2
# Target: CEP164, C-terminal peptide (human)
# Method: DHFR complementation, deep sequencing
# Matrix: yeast
# Notes: single substitutions, model-inferred values
# Reference: wild type
# Reading: higher = weaker binding
# Parent: PDZK1, PDZ domain 2 (human); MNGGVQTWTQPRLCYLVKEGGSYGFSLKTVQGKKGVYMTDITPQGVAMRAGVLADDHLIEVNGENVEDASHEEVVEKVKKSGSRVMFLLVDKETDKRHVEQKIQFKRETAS; partner HNRVKVYRF
Change,binding free energy change [kJ/mol]
A50P,6.62
R49Y,1.38
V5Q,0.0859
E100D,0.0636
G45V,3.45
G32I,3.86
T7F,-0.535
I59L,0.482

# Sample 3
# Target: TAR DNA-binding protein 43, full length, His tag (TARDBP, Homo sapiens, UniProt Q13148, residues 1-414)
# Method: RNA Bind-n-Seq
# Molecule type: RNA
# Matrix: in vitro
# Tested at: 20 nM
# Notes: 6-mer, flanks averaged, single round
# Together with: 150 mM KCl
# Reference: input library
# Reading: higher = stronger binding
Sequence,6-mer enrichment (R)
AUCUCA,0.533
ACCCGC,0.672
UCAGUG,0.89
CGUAUG,0.954
CGACGU,0.807
CGAGUG,1.52
CACUUC,0.562
UCUAUA,0.551

# Single results of other studies
Molecule,target,observed,method,molecule type,reference,measurement,result
HIHLHAQENPKVPYH,"UDP-N-acetylglucosamine--peptide N-acetylglucosaminyltransferase 110 kDa subunit (OGT, Homo sapiens, UniProt O15294)",binding,phage display NGS,peptide,input library,minimum log2 enrichment ratio,2.2
